Published values from different studies.
Protocols differ between the studies behind these lines.
Cdca7: Cdca7 241-382 (Mus musculus, UniProt Q9D0M2)
Sequence of UniProt Q9D0M2 (whole entry, looked up): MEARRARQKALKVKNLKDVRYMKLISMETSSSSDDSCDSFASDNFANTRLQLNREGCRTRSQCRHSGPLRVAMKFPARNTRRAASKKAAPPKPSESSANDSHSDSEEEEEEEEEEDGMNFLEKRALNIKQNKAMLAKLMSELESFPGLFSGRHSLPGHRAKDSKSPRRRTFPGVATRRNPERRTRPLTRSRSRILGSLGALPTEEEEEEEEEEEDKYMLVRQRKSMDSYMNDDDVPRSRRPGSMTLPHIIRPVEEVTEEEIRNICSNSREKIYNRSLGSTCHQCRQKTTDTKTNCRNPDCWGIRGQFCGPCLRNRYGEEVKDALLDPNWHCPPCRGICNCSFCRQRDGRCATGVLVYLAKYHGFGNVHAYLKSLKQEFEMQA
T1: MBNL1 ZF3-4 duplicated; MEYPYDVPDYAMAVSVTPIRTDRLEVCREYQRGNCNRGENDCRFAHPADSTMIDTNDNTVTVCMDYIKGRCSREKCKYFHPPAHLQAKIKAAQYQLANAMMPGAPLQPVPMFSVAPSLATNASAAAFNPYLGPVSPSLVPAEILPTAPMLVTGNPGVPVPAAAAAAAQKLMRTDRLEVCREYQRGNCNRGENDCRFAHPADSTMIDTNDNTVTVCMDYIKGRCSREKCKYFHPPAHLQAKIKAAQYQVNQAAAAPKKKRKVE
Sequence of UniProt P00698 (whole entry, looked up): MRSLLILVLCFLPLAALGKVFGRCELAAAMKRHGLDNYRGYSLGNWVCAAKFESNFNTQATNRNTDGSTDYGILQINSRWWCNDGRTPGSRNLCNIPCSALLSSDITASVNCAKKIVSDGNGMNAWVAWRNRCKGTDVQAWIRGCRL
Sequence of UniProt Q16637 (whole entry, looked up): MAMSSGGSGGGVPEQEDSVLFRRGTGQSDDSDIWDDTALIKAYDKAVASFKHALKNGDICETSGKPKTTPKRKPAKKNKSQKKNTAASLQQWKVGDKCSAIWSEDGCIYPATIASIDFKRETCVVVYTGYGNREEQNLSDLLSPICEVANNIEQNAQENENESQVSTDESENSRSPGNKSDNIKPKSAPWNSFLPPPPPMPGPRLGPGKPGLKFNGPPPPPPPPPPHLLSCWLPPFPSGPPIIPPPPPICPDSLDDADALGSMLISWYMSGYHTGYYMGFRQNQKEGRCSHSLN
Sequence of UniProt Q9H6S0 (whole entry, looked up): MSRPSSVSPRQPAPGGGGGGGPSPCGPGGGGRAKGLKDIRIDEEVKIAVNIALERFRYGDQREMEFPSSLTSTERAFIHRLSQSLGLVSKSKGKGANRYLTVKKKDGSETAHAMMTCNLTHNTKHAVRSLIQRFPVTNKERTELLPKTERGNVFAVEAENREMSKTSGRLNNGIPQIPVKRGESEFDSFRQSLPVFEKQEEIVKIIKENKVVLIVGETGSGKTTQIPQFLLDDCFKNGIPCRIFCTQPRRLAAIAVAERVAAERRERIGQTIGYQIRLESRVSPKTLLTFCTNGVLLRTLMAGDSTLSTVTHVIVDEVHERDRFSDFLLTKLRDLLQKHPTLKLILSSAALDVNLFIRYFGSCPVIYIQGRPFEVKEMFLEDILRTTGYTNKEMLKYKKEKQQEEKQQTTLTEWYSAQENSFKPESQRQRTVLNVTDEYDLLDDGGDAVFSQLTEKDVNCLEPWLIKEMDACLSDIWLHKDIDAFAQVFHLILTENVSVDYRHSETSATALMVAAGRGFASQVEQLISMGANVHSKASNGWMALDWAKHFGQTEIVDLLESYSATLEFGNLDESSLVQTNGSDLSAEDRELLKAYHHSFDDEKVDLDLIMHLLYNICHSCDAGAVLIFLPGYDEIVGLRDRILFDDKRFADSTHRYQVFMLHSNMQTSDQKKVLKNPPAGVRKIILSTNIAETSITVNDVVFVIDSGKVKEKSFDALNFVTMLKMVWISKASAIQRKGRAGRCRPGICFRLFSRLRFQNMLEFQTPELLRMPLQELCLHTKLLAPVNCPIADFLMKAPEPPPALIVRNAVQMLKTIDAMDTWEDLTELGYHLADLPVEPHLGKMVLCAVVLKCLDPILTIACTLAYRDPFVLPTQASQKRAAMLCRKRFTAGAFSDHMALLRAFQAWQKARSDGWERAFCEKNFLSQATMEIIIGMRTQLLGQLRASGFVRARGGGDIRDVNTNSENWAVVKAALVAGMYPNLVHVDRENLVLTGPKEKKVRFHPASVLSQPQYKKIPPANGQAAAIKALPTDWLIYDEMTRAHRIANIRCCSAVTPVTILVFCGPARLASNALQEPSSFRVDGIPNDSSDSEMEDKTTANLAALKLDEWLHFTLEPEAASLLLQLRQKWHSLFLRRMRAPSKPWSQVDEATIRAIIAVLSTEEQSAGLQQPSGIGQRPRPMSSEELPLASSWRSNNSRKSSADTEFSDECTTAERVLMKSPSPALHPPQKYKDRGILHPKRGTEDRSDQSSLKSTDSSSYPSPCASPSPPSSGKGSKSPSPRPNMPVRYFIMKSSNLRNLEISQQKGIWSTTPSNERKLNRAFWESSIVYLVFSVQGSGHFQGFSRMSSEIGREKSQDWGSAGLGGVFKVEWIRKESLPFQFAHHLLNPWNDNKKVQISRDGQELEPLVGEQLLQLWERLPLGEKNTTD
Sequence of UniProt Q9UKA9 (whole entry, looked up): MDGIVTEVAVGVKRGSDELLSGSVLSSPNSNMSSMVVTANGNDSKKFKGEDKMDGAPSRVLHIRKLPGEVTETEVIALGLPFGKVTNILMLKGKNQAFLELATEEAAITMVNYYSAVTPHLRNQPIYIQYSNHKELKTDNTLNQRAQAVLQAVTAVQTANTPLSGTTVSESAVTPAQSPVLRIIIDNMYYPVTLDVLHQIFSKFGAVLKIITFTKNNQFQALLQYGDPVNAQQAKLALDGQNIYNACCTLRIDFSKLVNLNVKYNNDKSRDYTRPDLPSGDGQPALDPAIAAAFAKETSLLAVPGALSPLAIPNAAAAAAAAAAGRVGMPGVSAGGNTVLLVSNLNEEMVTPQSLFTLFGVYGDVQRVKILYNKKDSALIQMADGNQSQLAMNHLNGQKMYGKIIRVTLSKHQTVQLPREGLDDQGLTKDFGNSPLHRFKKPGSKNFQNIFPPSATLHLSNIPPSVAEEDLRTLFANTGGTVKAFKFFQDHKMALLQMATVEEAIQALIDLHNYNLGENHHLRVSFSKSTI
Sequence of UniProt P16914 (whole entry, looked up): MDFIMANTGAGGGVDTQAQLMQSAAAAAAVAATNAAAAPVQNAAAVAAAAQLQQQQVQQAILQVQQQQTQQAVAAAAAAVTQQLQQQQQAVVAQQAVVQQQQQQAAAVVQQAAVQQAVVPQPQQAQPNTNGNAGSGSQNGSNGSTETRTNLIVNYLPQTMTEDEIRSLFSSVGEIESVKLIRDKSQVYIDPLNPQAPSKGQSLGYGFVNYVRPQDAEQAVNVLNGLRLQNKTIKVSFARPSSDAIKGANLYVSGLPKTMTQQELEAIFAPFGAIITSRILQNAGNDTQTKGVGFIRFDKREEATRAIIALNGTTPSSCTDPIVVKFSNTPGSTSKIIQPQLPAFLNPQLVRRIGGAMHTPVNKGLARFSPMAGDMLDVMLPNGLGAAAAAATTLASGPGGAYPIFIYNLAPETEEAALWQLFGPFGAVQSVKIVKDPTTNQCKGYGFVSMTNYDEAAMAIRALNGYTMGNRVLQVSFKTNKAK

| Oligonucleotide | target | method | molecule type | tested at | notes | binding |
| --- | --- | --- | --- | --- | --- | --- |
| CAAGTCCCTGTCGGTGAGGAACCGTTTGAC (DNA; hairpin) | Cdca7 | EMSA | folded DNA |  |  | binds |
| DNA 1 TGGCCAAAAAAGCATTGCTTATCAATTTGTAGCACC / DNA 2 TGGTGCTACAAATTGATAAGCAATGCTTTTTTGGCC (dsDNA; 5' T overhangs) | IHF alpha/IHF beta (Escherichia coli) | FRET, laser T-jump | double-stranded DNA |  | KCl 100 mM | binds |
| GAAACGGGACGGCACCUCUUUUAACCCUUGAAGUCACUGCCCGUUUCGAGAGUUUCUCAACUCGGCCAACGUGAACUUUUGCGGAUCUCCAGGAUCCGCUUUUUUUU (structured RNA) | hfq full length assumed F42W (Escherichia coli, UniProt P0A6X3) | tryptophan fluorescence quenching | folded RNA |  |  | binds |
| GCGACGCCCTGTCGGTGAGACTAGT (ssDNA) | Cdca7 | EMSA | single-stranded DNA |  |  | no binding |
| GGGUUCAUCAGGGCUAAAGAGUGCAGAGUUACUUAGUUCACUGCAGACUUGACGAAGCUU (structured RNA) | LYZ 19-147 (Gallus gallus, UniProt P00698) | filter binding | folded RNA |  |  | binds |
| RNA 1 GGAGGAUGUUAAUUGGCGUGUCUUGUCUGCAACGGUAUUC / RNA 2 GAAUACCGUUGCAGACAAGACACGCCAAUUAACAUCCUCC (dsRNA) | EIF2AK2 1-185 F131W (Homo sapiens, UniProt P19525) | tryptophan fluorescence anisotropy | double-stranded RNA | 1 µM |  | binds |
| UGUGUAAGUGAGUACGGUCGCUGUGGUGUGAUGAUGGGUGUGG (ssRNA) | elav full length assumed (Drosophila melanogaster, UniProt P16914) | EMSA | RNA |  |  | no binding |
| GCAGCCCAUGAUGGCUGAAUCCUGAAAACCAGCCCGCUGGUGGGGGUCCAGCUUGAUGUCUUUGCAGC (structured RNA) | Sbp2 full length assumed (Drosophila melanogaster, UniProt Q9VSH1) | EMSA | folded RNA |  |  | no binding |
| GCUGCUGUUCGCUGCUG (ssRNA; hairpin) | T1, MBNL1 ZF3-4 duplicated | EMSA | folded RNA |  |  | binds |
| GTCGACCAGCTGAGTCGACCAGCTG (ssDNA; N6-methyl-dA) | YTHDC2 1268-1430 (Homo sapiens, UniProt Q9H6S0) | pull-down | single-stranded DNA |  |  | binds |
| GCCCUCUCUCCCGCCGCCCGCCCGCCACCCGCCAGCCCAGGUGCCCGCCCGCCAGUCAGCUAGUCCGUCGGUCCGCGCGUCCCUCUGUCCCGGAGCCCGCAGAUCGCGACCCAGAGCGCGCGGGGCCGAGAGCCGAGAGACAGUCCCGGGCGCAGCGCGGAGCUCCGGGCCCCGAGAUCC (structured RNA) | PTBP2 full length assumed (Homo sapiens, UniProt Q9UKA9) | EMSA | folded RNA |  |  | binds |
| CAACGCCCTGTCGGTGAGAAACCGTTTGCA (dsDNA) | Cdca7 | EMSA | double-stranded DNA, one strand shown |  |  | no binding |
| GGGAACCGGCCCUCACCACGGCAAGCU (ssRNA) | Survival motor neuron protein 1-294 (Homo sapiens, UniProt Q16637) | competition | RNA |  | complete loss | no binding |

Excerpt of the above:
| Oligonucleotide | target | method | molecule type | tested at | notes | binding |
| --- | --- | --- | --- | --- | --- | --- |
| GCGACGCCCTGTCGGTGAGACTAGT (ssDNA) | Cdca7 | EMSA | single-stranded DNA |  |  | no binding |
| CAAGTCCCTGTCGGTGAGGAACCGTTTGAC (DNA; hairpin) | Cdca7 | EMSA | folded DNA |  |  | binds |
